Measurements collected from several papers.
Parts stem from different laboratories: compare values within a part only.
Chain of UniProt Q13554 (whole entry, looked up): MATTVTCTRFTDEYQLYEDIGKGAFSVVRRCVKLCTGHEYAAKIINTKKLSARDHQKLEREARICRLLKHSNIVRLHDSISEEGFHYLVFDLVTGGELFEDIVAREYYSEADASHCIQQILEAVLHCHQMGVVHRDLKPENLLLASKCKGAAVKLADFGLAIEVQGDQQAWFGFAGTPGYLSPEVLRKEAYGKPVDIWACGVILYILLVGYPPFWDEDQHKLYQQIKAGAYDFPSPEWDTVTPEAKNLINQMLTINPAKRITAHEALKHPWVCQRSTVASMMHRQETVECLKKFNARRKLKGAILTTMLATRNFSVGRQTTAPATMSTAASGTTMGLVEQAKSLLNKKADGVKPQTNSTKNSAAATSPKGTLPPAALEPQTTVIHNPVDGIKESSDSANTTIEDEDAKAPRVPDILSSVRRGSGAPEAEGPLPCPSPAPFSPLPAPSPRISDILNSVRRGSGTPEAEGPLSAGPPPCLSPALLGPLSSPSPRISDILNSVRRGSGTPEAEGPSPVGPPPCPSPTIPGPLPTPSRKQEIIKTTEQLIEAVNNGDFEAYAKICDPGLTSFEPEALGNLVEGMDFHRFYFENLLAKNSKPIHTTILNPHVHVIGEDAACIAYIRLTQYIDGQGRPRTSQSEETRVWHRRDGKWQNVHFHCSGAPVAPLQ

Sample 1
Target: Histone acetyltransferase KAT6A, winged helix 1, GST fusion (KAT6A, Homo sapiens, UniProt Q92794, residues 1-85)
Method: protein binding microarray
Form: double-stranded DNA, one strand shown
Medium: in vitro
Tested at: not given
Notes: 8-mer, flanks averaged, mean of 2 arrays, mostly near background
Reference: not given
Reading: higher = stronger binding
Target sequence (chain): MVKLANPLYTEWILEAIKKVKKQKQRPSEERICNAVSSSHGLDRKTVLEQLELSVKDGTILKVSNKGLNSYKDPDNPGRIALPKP
`AAAGGTAA` gave an E-score of -0.203.
The E-score of `CGTTGTAG` is reported as -0.0372.
The E-score of `TCTTTCCA` is reported as -0.173.
For `CGACTGTA`, the E-score was 0.0285.
`CCTTTATC` gave an E-score of -0.113.
`GAATGTTA` has an E-score of -0.0474.
For `ACAGGATG`, the E-score was -0.144.
The E-score of `AGTCGAAG` is reported as -0.187.

Sample 2
Target: Interferon regulatory factor 5, full length, phosphomimetic (IRF5, Homo sapiens, UniProt Q13568-2, residues 1-514, S451D/S453D/S456D/S462D)
Method: protein-binding microarray
Form: double-stranded DNA, one strand shown
Medium: in vitro
Tested at: 940 nM top
Notes: 60-bp whole probe
With: salmon DNA 0.4 mg/ml
Reference: random background probes
Reading: higher = stronger binding
Constant ends, left off below: GCCTAGCAC … GTCTTGATTCGCTTGACGCTGCTG
`GTTTTTCTCCTATTTAAGACGTGCTAG` — result for “fitted relative affinity”: 2.02 z-score.
`GACGGTTTCGGGTACCGGGACGTGCTA`: “fitted relative affinity” 9.54 z-score.
For `TTAGATTTCAGACTGGATCAGTGCTAG`, “fitted relative affinity” read -0.16 z-score.
`GACGATCTCAGACTGAAGACGTGCTAG`: “fitted relative affinity” -0.302 z-score.
Under “fitted relative affinity”, `TCAAGAAAAAGAAAAAAAACTGTGCTA` is recorded as -0.0825 z-score.
Under “fitted relative affinity”, `TCACATTTTCTCTTATTACTGTGCTAG` is recorded as 2.35 z-score.
Under “fitted relative affinity”, `TGAGGTTTCGGTTTCGGTTAGTGCTAG` is recorded as 14.6 z-score.
`GACGGACTGCTACTGCTGGCGTGCTAG` — result for “fitted relative affinity”: -0.889 z-score.

Single results of other studies
With `CCC(=O)Nc1ccc2ncnc(Nc3cccc(Br)c3)c2c1` the remaining activity was 105% (Calcium/calmodulin-dependent protein kinase type II subunit beta (CAMK2B, Homo sapiens, UniProt Q13554); enzyme activity, inhibitor; 0.5 µM; reference: control).
The remaining binding of `O=C(N[C@H]1CCCCC/C=C\C2C[C@@]2(C(=O)O)NC(=O)[C@@H]2C[C@@H](Oc3ccncc3)CN2C1=O)OC1CCCC1` (stereo partly drawn) is reported as 87% (Dual specificity mitogen-activated protein kinase kinase 2 (MAP2K2, Homo sapiens, UniProt P36507); binding, competition with immobilised ligand; 1 µM).
